Assay results gathered from unrelated publications.

For `C=CC(=O)Nc1cc(Nc2nccc(Nc3cc(Cl)c(F)cc3C(C)(C)O)n2)c(OC)cc1N1CC[C@@H](N(C)C)C1`, “patients with adverse event Paronychia” read 28.4% (human; oral, dose not given, phase I clinical).
Under “patients with serious adverse event”, `C[C@]1(O)C[C@@](N)(c2ccc(-c3nc4n(c3-c3ccccc3)COc3ccncc3-4)cc2)C1` is recorded as 55.6% (human, advanced or metastatic solid tumours; dose not given, once-daily dose escalation total).
Under “patients with TEAE”, `Cc1cn([C@H]2O[C@@H](CO[P@@](=O)(N[C@@H](C)C(=O)OC(C)C)Oc3ccccc3)[C@H](O)[C@H]2F)c(=O)[nH]c1=O` is recorded as 20% (refers to: Fatigue; human; 25 mg).
For `COc1ccc(-c2c(-c3ccc(C#N)c(F)c3)nc(N3CCC(N)CC3)n(C)c2=O)cc1F`, “patients with TRAE any grade” read 4% (refers to: decreased appetite; human patients; oral, dose not given, dose escalation).
For `N[C@@H]1c2ccccc2OC12CCN(c1cnc3c(N4CCCc5ncccc54)n[nH]c3n1)CC2`, “patients with treatment-emergent adverse event” read 20% (refers to: Anemia; human advanced or metastatic solid tumours; oral, 60 mg once daily, phase Ia pooled cohort).
For `O=C1Nc2cc3[nH]nc(-c4ccncc4)c3cc2CN1Cc1ccccc1`, “patients with nausea” read 100% (CTCAE v4.03; human, relapsed or refractory advanced solid tumours; intravenous, 1.8 mg/kg, pooled schedules).
Under “patients with dysgeusia”, `COc1ncnn2ccc(-c3cnc4nc(C)n(Cc5nnc([C@@H](C)F)o5)c4c3)c12` is recorded as 0% (human; oral, dose not given, grade 4).
For `C[C@@H]1OC(=O)NN=C1c1ccc(-c2ccc(F)cc2)c(C(F)(F)F)c1`, “patients with TEAE” read 20% (phase I trial, refers to: platelet count decreased; human patients; dose not given, worst grade 1, all doses).
Under “patients with adverse event”, `CN(C)C(=O)c1cc2cnc(Nc3ccc(N4CCNCC4)cn3)nc2n1C1CCCC1` is recorded as 0.3% (refers to: Thrombocytopenia, AESI; human, HR+/HER2− advanced breast cancer; oral, dose not given, grade 4, CTCAE v4.03).

Excerpt of the above:
Under “patients with dysgeusia”, `COc1ncnn2ccc(-c3cnc4nc(C)n(Cc5nnc([C@@H](C)F)o5)c4c3)c12` is recorded as 0% (human; oral, dose not given, grade 4).
